Results of several laboratories.
A part holds a random share of what one study measured.
Sequence of UniProt P27361 (whole entry, looked up): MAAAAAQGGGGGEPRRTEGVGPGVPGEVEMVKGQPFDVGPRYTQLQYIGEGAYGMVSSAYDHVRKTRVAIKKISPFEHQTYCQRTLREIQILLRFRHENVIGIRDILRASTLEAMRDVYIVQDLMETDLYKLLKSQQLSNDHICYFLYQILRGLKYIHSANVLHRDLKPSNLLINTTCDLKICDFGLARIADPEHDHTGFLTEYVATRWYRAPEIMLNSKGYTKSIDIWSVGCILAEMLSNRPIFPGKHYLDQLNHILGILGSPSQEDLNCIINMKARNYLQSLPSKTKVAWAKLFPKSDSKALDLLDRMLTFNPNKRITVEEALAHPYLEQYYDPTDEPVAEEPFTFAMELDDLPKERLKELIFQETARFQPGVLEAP
Sequence of UniProt P42685 (whole entry, looked up): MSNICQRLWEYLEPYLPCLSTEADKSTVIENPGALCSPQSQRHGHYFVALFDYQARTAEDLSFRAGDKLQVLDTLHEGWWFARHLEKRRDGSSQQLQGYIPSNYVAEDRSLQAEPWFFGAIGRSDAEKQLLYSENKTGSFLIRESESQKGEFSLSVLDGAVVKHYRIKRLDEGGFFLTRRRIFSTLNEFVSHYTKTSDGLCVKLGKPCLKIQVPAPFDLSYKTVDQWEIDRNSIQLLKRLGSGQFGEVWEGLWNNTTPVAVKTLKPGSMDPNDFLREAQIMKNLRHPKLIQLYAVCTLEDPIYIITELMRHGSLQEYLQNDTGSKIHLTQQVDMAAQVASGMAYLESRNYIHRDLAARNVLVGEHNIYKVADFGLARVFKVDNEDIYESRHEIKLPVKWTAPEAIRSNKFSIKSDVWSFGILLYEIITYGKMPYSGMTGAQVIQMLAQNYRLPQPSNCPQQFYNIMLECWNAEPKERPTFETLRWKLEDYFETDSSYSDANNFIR
Sequence of UniProt P49841 (whole entry, looked up): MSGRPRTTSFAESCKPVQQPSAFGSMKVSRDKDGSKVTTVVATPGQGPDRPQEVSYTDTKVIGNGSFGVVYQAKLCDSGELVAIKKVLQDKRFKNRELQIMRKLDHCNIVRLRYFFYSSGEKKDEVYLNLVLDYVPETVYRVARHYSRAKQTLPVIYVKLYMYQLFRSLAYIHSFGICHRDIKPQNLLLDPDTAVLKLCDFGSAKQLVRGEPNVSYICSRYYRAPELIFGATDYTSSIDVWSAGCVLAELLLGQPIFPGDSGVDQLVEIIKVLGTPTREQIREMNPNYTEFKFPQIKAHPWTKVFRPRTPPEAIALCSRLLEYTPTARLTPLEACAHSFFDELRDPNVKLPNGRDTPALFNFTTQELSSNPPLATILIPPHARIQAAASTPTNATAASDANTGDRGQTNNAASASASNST
Sequence of UniProt Q02763 (whole entry, looked up): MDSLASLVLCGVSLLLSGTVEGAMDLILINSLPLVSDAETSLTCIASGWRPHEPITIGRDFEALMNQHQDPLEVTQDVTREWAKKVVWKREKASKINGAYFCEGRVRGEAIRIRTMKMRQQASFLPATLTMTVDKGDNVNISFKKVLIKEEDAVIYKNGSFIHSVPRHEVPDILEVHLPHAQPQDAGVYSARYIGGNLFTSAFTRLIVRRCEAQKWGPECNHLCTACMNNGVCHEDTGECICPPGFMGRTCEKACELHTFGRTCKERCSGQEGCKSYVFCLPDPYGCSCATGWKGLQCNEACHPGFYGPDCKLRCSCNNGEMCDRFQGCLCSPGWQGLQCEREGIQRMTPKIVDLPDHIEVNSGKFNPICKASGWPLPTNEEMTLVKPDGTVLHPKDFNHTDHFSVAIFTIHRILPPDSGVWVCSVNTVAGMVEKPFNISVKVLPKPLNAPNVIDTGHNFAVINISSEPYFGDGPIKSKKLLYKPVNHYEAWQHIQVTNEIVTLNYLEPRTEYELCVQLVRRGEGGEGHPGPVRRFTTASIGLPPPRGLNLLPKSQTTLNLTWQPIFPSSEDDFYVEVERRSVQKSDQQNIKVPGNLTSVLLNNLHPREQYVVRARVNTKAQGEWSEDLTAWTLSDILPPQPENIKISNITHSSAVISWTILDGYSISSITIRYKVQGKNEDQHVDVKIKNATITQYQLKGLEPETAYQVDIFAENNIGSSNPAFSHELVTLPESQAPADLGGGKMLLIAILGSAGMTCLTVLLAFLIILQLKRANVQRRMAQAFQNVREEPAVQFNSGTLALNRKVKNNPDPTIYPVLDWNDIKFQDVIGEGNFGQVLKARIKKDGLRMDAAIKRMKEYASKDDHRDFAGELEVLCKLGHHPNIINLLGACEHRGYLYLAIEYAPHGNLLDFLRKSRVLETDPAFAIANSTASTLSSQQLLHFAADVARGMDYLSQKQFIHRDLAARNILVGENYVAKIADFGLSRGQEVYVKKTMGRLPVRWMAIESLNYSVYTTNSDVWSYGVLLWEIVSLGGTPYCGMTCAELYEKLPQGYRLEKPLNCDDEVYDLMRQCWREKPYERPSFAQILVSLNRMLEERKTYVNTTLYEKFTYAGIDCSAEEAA
Sequence of UniProt Q99558 (whole entry, looked up): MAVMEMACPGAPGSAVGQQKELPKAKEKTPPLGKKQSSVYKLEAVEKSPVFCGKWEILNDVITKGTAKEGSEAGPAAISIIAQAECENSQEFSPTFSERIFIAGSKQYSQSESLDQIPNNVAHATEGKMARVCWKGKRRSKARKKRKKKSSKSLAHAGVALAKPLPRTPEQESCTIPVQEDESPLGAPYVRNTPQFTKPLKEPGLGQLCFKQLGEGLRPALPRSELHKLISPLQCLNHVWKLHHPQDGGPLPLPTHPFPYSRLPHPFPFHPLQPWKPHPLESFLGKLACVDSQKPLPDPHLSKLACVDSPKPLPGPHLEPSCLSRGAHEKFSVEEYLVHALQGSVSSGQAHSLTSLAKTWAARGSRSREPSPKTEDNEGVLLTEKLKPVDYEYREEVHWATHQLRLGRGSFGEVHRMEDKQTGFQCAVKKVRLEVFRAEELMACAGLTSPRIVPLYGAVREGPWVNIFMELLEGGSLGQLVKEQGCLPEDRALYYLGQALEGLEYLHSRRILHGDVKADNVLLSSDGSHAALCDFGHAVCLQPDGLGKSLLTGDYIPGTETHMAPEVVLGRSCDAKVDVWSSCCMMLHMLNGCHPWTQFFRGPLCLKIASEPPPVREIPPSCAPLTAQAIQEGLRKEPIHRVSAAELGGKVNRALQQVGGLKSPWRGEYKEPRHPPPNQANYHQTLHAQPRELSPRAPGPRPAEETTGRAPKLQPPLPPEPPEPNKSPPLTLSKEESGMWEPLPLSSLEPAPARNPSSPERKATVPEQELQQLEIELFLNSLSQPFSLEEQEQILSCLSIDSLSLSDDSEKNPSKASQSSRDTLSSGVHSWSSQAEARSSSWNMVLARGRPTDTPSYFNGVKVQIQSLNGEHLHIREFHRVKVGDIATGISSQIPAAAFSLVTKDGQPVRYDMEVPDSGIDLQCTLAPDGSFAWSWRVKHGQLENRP
Sequence of UniProt P36896 (whole entry, looked up): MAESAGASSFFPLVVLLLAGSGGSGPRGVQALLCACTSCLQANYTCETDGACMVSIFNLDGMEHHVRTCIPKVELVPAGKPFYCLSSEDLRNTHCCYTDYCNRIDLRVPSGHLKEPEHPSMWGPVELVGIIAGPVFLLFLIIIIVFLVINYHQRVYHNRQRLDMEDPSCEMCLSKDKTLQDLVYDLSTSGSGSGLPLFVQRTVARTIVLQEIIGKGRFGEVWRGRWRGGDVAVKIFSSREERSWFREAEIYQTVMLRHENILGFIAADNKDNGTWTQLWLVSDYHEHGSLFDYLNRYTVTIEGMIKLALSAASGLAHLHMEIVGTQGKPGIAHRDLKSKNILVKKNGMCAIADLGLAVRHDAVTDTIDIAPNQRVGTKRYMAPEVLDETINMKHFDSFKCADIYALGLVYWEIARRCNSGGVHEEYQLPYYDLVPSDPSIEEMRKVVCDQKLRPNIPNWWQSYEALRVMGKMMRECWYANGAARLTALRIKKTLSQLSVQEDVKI

Sample 1
Target: PABPC1L2, full length, GST fusion (mouse, UniProt A0ABA7IW68)
Method: RNAcompete
Molecule type: RNA
Sample: in vitro
Tested at: 20 nM
Notes: 7-mer, probes averaged, single round
Reference: mean of 7-mers
Direction: higher = stronger binding
Residues (chain): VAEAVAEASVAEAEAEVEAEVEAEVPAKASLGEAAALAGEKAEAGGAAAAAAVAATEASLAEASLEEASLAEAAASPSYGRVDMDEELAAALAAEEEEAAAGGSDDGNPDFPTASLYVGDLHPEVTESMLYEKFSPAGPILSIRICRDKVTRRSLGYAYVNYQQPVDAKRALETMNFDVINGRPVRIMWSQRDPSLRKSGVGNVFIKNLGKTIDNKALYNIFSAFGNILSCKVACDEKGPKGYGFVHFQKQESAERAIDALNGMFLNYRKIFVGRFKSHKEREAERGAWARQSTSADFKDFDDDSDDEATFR
Sequence	7-mer Z-score
AUGACCC	-0.173
CGUGUUU	-0.458
CUAGAUG	-0.0917
GAAUGAA	0.104
GCCGUGU	-0.267
GGCGAUU	0.148
UUCCACG	-0.271
AGUUAGC	-0.15

Sample 2
Target: Sal-like protein 4, full length isoform A (SALL4, Homo sapiens, UniProt Q9UJQ4, residues 1-1053)
Sequence of UniProt Q9UJQ4 (whole entry, looked up): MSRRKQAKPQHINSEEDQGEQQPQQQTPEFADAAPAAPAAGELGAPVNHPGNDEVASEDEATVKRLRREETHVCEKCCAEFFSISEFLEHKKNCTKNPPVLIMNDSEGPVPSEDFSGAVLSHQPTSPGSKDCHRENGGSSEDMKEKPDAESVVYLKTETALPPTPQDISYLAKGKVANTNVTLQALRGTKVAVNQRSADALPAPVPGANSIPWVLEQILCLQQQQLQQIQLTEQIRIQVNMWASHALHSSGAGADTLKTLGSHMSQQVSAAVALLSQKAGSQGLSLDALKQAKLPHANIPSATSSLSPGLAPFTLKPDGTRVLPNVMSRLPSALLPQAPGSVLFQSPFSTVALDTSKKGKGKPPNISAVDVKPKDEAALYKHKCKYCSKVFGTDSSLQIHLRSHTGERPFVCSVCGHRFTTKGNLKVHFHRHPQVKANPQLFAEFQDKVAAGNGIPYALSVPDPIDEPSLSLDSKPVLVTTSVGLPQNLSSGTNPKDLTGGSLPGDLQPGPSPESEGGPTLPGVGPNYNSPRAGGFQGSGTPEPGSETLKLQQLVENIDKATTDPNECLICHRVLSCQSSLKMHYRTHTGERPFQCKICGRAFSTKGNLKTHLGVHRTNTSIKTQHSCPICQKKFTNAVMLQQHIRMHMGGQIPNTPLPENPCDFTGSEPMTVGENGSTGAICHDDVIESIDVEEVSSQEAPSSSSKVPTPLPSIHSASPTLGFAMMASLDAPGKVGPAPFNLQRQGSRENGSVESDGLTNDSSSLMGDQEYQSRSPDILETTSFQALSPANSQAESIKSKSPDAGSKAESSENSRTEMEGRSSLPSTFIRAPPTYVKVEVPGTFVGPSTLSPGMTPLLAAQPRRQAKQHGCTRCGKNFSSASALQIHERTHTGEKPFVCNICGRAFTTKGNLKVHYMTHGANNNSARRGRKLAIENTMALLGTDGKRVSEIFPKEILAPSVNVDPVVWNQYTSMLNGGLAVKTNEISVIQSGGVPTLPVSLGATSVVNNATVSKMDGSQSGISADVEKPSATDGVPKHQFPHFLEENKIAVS
Method: universal PBM
Molecule type: double-stranded DNA, one strand shown
Sample: in vitro
Tested at: 600 nM
Notes: 8-mer, flanks averaged, mean of replicates
Direction: higher = stronger binding
Sequence	E-score
ACCATGAA	0.0912
ACACCTGC	-0.0198
GAATAGAA	0.181
ACAGACGG	-0.134
GAACCAGA	-0.0866
GATCGGTA	0.0643
AGATAGAC	0.0197
AGATCAAC	0.0878

Sample 3
Structure (SMILES): CCOc1cc2ncnc(Nc3cccc(Br)c3)c2cc1OCC
Observed: enzyme activity
Action: inhibitor
Tested at: 0.5 µM
Reference: control
target	remaining activity
Ephrin type-A receptor 3 (EPHA3, Homo sapiens, UniProt P29320)	83.3%
Macrophage-stimulating protein receptor (MST1R, Homo sapiens, UniProt Q04912)	102%
Mitogen-activated protein kinase kinase kinase 14 (MAP3K14, Homo sapiens, UniProt Q99558)	93.4%
Wee1-like protein kinase (WEE1, Homo sapiens, UniProt P30291)	97.9%
Activin receptor type-1B (ACVR1B, Homo sapiens, UniProt P36896)	101%
Serine/threonine-protein kinase Nek1 (NEK1, Homo sapiens, UniProt Q96PY6)	99.2%
Tyrosine-protein kinase FRK (FRK, Homo sapiens, UniProt P42685)	85.9%
Tyrosine-protein kinase Lck (LCK, Homo sapiens, UniProt P06239)	52.9%
Mitogen-activated protein kinase 3 (MAPK3, Homo sapiens, UniProt P27361)	113%
Glycogen synthase kinase-3 beta (GSK3B, Homo sapiens, UniProt P49841)	96.8%
Angiopoietin-1 receptor (TEK, Homo sapiens, UniProt Q02763)	96.4%
Tyrosine-protein kinase JAK3 (JAK3, Homo sapiens, UniProt P52333)	102%
Tyrosine-protein kinase Mer (MERTK, Homo sapiens, UniProt Q12866)	87.1%
MAP kinase-activated protein kinase 2 (MAPKAPK2, Homo sapiens, UniProt P49137)	101%

Single results of other studies
SMILES	cell line	tested at	reference	endpoint	value
CC(=O)C1=C(C)N(c2cccc(C(F)(F)F)c2)C(=O)N[C@@H]1c1ccc(C#N)nc1	patient-derived normal-adjacent epithelium organoids	1 µM	DMSO control	viability	98.9%
